Published values pooled from the literature.
Numbered parts are unrelated; each lists some results of a single study. Positions count from the first letter of the parent shown.

Sample 1
Target: TAR DNA-binding protein 43, full length, His tag (TARDBP, Homo sapiens, UniProt Q13148, residues 1-414)
Technique: RNA Bind-n-Seq
Form: RNA
Medium: in vitro
Tested at: 20 nM
Notes: 6-mer, flanks averaged, single round
Added: 150 mM LiCl
Reference: input library
Direction: higher = stronger binding
| Strand | 6-mer enrichment (R) |
| --- | --- |
| CAAGGU | 0.897 |
| GGACCA | 0.93 |
| CCCUAU | 1.08 |
| CGAUAG | 0.851 |
| CCGGCG | 0.96 |
| AUACUA | 0.85 |
| AUUGCU | 0.926 |
| UUGAUC | 0.912 |

Sample 2
Target: Fragile X messenger ribonucleoprotein 1, C-terminal low-complexity region (Fmr1, Mus musculus, UniProt P35922)
Technique: RNA Bind-n-Seq
Form: RNA
Medium: in vitro
Tested at: 200 nM
Notes: whole 134-nt RNA, ends assumed
Added: 150 mM KCl
Reference: input library
Direction: higher = stronger binding
Constant ends, left off below: GGGAGUUCUACAGUCCGACGAUC … UGGAAUUCUCGGGUGUCAAGG
| Strand | log2 enrichment |
| --- | --- |
| CUCAGACAACACGCACCCACACAGACACAGAGGGAAGGGGUUGGGAUGGGGACAGGGUGCACAGCAGGGCGGGGUAGGACCCCAGCCCCU | 1.42 |
| CAAGUCCUGUGCUACACAUCGUAUGUACCGAAUCGGGGAGGGGUUUGGGGUGGGGAAAGUAUUAUGUUACGCCGUUCGGAUCUGCACUUC | 1.58 |
| GCAGGAAGUAAAAACAAAUGGAAAUGCUUCGGAUAGUGGCAGGGGUGGGGGUUGCUAAGGAAGGGGUGGGAUGGGAGUGGGUAAAGAGUU | -0.161 |
| CAAGUCCUGUGCUACACAUCGUAUGUACCGAAUCGGUUUUUUUGGUUUUUGGAGGAAAGUAUUAUGUUACGCCGUUCGGAUCUGCACUUC | -0.607 |
| AGUCCUGUGCUACACAUCGUAUGUACCGAAUCAAAUUUAAACCCAAAUUUUUUUAAAAAAGUAUUAUGUUACGCCGUUCGGAUCUGCACU | 0.0959 |
| AGUCCUGUGCUACACAUCGUAUGUACCGAAUCAAAUUUAAAUUUUUAAAUUUUUAAAAAAGUAUUAUGUUACGCCGUUCGGAUCUGCACU | -1.39 |
| CCUGUGCUACACAUCGUAUGUACCGAAUCGGGGUUUUUGGGGUUUUUUUGGGGUUUGGGGAAAGUAUUAUGUUACGCCGUUCGGAUCUGC | 0.558 |
| UGGGAGGUGGAUUUUGUUUAUUUUUUUAGCUCAUUUCCAGGGCUGGGAAUUUUUUUUUAAUAUGUGUCAUGAAUAAAGUUGUUUUUGAAA | -0.355 |

Sample 3
Target: CCND2, cyclin fold, Cln2 fusion (human)
Technique: yeast growth competition, sequencing
Medium: yeast
Notes: weak parent motif
Reference: not given
Direction: higher = stronger binding
Starting sequence: viral docking peptide; KGVKRKLFAEDSS
| Variant | normalised enrichment score |
| --- | --- |
| V3A | 0.426 |
| K4N | 0.025 |
| F8Y | -0.225 |
| R5L | -0.278 |
| E10M | -0.4 |
| R5K F8L | 0.527 |
| R5D | 0.0514 |
| L7E | 0.323 |
| E10P | 0.278 |
| E10H | -0.216 |
| D11Q | -0.444 |
| S12T | 0.106 |
| K4H | -0.039 |
| K4W | -0.412 |
| K4C | 0.00334 |
| A9S | -0.0473 |
| K4S | 0.302 |
| F8I | 0.0729 |
| F8W | -0.336 |
| R5A L7A | 0.0379 |
| D11K | 0.098 |
| R5Q | 0.336 |
| V3T | 0.331 |
| D11Y | 0.406 |
| R5S | -0.137 |

Sample 4
Target: RING finger protein unkempt homolog, zinc fingers 1-6, GST-SBP tag (UNK, Homo sapiens, UniProt Q9C0B0, residues 30-357)
Technique: RNA Bind-n-Seq
Form: RNA
Medium: in vitro
Tested at: not given
Notes: RNA with constant flanks, human-mouse chimeric sites, ends assumed
Reference: input RNA pool
Direction: higher = stronger binding
Constant ends, left off below: GGGAGUUCUACAGUCCGACGAUC … CAACAGAGGAUUGAGCAUCA
Residues (chain): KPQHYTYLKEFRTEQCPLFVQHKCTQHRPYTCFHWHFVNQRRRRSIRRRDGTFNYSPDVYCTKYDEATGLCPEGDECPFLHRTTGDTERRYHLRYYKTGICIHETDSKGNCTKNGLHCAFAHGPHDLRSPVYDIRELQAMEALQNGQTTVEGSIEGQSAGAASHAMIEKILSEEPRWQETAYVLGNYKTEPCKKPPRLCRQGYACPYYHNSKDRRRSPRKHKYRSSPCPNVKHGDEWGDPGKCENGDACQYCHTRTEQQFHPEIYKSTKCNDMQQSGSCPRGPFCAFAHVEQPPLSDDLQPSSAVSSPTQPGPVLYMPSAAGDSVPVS
| Strand | bound/input enrichment |
| --- | --- |
| GGAAGUACAAUGAUGGAGAUUGAUGGUGACAAAGGCAAACAAGGCGGGCCCACCUACUACAUAGACACCAAUGCCCUCCGCGUGCCCAGGGAGAACAUGGAGGCCAUCUCACCACUCAAG | 0.241 ratio |
| GUGACAGGUGUUAAGAUUUCCCCUCAGCAAAGAAGUGCAGUAGUCACCAUAAUUCCAUCUGUGGUGAGUGCCAGUCAGAUUGUGGAGCUGGUCCCAGAACUCAGUUUAGACAUGGGAACU | 0.344 ratio |
| GUGACUGGUGUUAAGAUUUCCCCUCAGCAAAGAAGUGUAGCAGUGACAAUAAUCCCUUCUGUGGUGAGUGCCAGUCAGAUUGUGGAGCUGGUCCCAGACCUCAGUUUAGACAUGGGAACU | 0.307 ratio |
| GUGACUGGUGUUAAGAUUUCCCCUCAGCAAAGAAGUGCAGUAGUCACAAUAAUCCCUUCUAUAGUGAGUGCCAGUCAGAUUGUGGAGCUGGUCCCAGACCUCAGUUUAGACAUGGGAACU | 1.3 ratio |
| AAAGAGAAACUAAAGCAACUAAUAGAGAAGAGGAUUGGCAAAGAGAAAUUUCAUAGAAAACUAGGAUUUAUUAGCAAAACAUGAGUUUAUUCCAGAGCGUCUCAGAAACCCCAGCCAAAC | 13.3 ratio |
| CCCCACAACCAUUUGCAGGUCUGGAACUGCACUCUCUUUUUUAAAAAACAUGUAUACAUUUUAGGGCUGUAGAUUUACUUUCCUAUUUUUGUUUUUCAUUGCUGACUUUUGAGCACAGAA | 1.69 ratio |
| GUUGCCAGCUUCCGGUUCCGUUGGGCUCGGUUCUCUCCUGAGCUACGUGUCUCUACGCUCUCAAUCCGCCAUCCAACAAACAUGGAUGAUCAGGUAAAGUUUGUGGAGCCCAGCCGGCAG | 0.0801 ratio |
| CCCCAAUACCAUUUGCAGGUCUGGAACUGCACUCUCUUUAAAGUUUUACAUGUAUACAUUUUAGGGCUGUAGAUUUACUUUCCUAUUUUUGUUUUUCAUUGCUGACUUUUGAGCACAGAA | 0.861 ratio |

Other studies, line by line
| SMILES | cell line | tested at | time | endpoint | result |
| --- | --- | --- | --- | --- | --- |
| O=c1[nH]c2ccccc2n1C1CCN(CCCC(c2ccc(F)cc2)c2ccc(F)cc2)CC1 | A-375 | 100 µM | 18 h | viability | 9.58% |

A few entries again (sample 3):
| Variant | normalised enrichment score |
| --- | --- |
| K4N | 0.025 |
| F8Y | -0.225 |
| R5L | -0.278 |
| E10M | -0.4 |
